Assay results gathered from unrelated publications.
Every numbered part comes from another study and shows a few of its results, in no order.

Series 1
Target: Probable WRKY transcription factor 11, DNA-binding domain (WRKY11, Arabidopsis thaliana, UniProt Q9SV15, residues 228-325)
Technique: DNA-protein interaction ELISA
Molecule type: double-stranded DNA, one strand shown
Medium: in vitro, bacterial lysate
Concentration: not given
Notes: whole dsDNA probe, crude lysate protein
Reference: highest signal in screen
Direction: higher = stronger binding
Target sequence (chain): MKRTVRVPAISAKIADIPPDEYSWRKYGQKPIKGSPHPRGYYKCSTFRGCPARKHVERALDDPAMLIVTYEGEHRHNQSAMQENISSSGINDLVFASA
`AAAAAATTAATCCATGCTTATGTCTGAAAA` gave a relative absorbance of 16.7 % of maximum.
`AAAAAATAAGTAACCGAACGAAACTCAAAA` has a relative absorbance of 16.1 % of maximum.
`AAAAAATCAACCATTATGGTATTACTAAAA` gave a relative absorbance of 18.4 % of maximum.
With `AAAAAATCCTATCTTGGCTTTGGCCTAAAA` the relative absorbance was 15.6 % of maximum.
For `AAAAAAGATTGACTCGTCTTACTCGAAAAA`, the relative absorbance was 73.8 % of maximum.
With `AAAAAAGGCTCCGGCCCCCAATCGCAAAAA` the relative absorbance was 16.4 % of maximum.
`AAAAAAGTTTCCTACTTGTGTCTGTGAAAA` gave a relative absorbance of 13.5 % of maximum.
The relative absorbance of `AAAAAAGAGAATTGTCAGTGCCCAACAAAA` is reported as 18.2 % of maximum.
`AAAAAAACTCTAGGTCAATATTATTCAAAA` gave a relative absorbance of 76.7 % of maximum.
With `AAAAAATTTCTATTTCATCTTTGCCCAAAA` the relative absorbance was 17.6 % of maximum.
`AAAAAATCTATTCCATTTCGCCTTCTAAAA` gave a relative absorbance of 16.7 % of maximum.
`AAAAAAGCTCGTCTCCGCCTCCTGCTAAAA` gave a relative absorbance of 17.3 % of maximum.
For `AAAAAAGCTTCTCATGTTGTCTTAGGAAAA`, the relative absorbance was 16.4 % of maximum.
The relative absorbance of `AAAAAAGGCCGTTGGACCTCGGTCTAAAAA` is reported as 17.6 % of maximum.
The relative absorbance of `AAAAAACTCCCTCTCCTCTGTCTTCCAAAA` is reported as 16.1 % of maximum.
The relative absorbance of `AAAAAATCGGGGATCCGGGCGGTTGCAAAA` is reported as 16.7 % of maximum.
`AAAAAATTTGGTCTTCGTCCTCGCTTAAAA` has a relative absorbance of 27.4 % of maximum.
With `AAAAAAACTCTCCGGGTACAATTGCAAAAA` the relative absorbance was 13.3 % of maximum.
For `AAAAAATTCCCAGCGTATCCGACCCGAAAA`, the relative absorbance was 13.8 % of maximum.
`AAAAAATGTTTTTTAGAGGTGTGCAAAAAA` gave a relative absorbance of 14.7 % of maximum.
`AAAAAATGTATTCGTGTCCACTCCATAAAA` has a relative absorbance of 13.8 % of maximum.
The relative absorbance of `AAAAAATAAACGTGTTCATACTTAGTAAAA` is reported as 16.1 % of maximum.

Series 2
Target: RNA binding protein fox-1 homolog 2, RRM domain, GST-SBP tag (RBFOX2, Homo sapiens, UniProt O43251-10, residues 100-194)
Technique: RNA Bind-n-Seq
Molecule type: RNA
Medium: in vitro
Concentration: 365 nM
Notes: natural RNA segment, single round, ends assumed
Reference: no-protein control
Direction: higher = stronger binding
Shared flanks, not repeated: GGGAGUUCUACAGUCCGACGAUC … UGGAAUUCUCGGGUGCCAA
Construct (chain): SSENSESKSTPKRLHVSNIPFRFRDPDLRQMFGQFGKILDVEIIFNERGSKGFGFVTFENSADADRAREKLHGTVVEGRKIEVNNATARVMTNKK
For `AGAGCUGGGUCUGCAAUAGCUAGUCUAAAAACUACUUGUGUGUCAGUCCUCUGGUUAUAGUAUAUAAGAGCCUGAGGAGGUCUGGCAAGAUAGAUGGUGUAUUAUUUAUG`, “RBNS enrichment (R)” read 2.56.
Under “RBNS enrichment (R)”, `UUUGCUGCUAACACUGGAGGCGGUGUUCCUAACUGCAGUGUGCUGCUUACACCUCCCCGCGUGGGUAACCAAAUUUUUAAGUAGUCAGAGACAUAUCGAGGUAGUUACAU` is recorded as 0.259.
Under “RBNS enrichment (R)”, `UUUAUAAGCAAAAACGUGCCGUUUAAACCACUGGAUCUAUCUAAAUGCCGAUUUGAGUUCGCGACACUAUGUACUGCGUUUUUCAUUCUUGUAUUUGACUAUUUAAUCCU` is recorded as 0.454.
`CCCACCGCCCUCCCUGGAUAGGAUUUGGGCAGGGUUUCAGUCUCCACUGAUUGCCGCCUUGUUCUCCCUGACUGAUUGCUGCCUUGCUGGCUAGCCCAAGGGCCCUGCCA`: “RBNS enrichment (R)” 7.74.
`GAGGAAGUUCCCGGCCUGGGGGCUUUAUCCAGGGGUCCCAGUCGAGAGUGGCCCGAGGCCGUCCCUCACCGGGCAUGUUCCCUCUGGCUGCCCACUCCCUCAGGGCCCAC`: “RBNS enrichment (R)” 0.32.
For `UUAUUUUUUGAUGGUAAUAUUCUAUCCUUAUGACACUAUUGCAACCAAAUUGGCUUUACCAUCUUGGCUUUAGUAGGUAUAGAAGACAAUGGAUUACCAUCUUUAUUGCU`, “RBNS enrichment (R)” read 0.516.
Under “RBNS enrichment (R)”, `GGGAUGCCGUUUGAAAACAGGCACUCUUCCCCUGAGGAUGGGAAAGGAGCUCUUCAGUUGGAGAUCUAGGCAGUGGGUUAAGCCAGACCCCUAAAGUGACCCUUUCCUCU` is recorded as 0.543.
For `CCAAUAUAGUUUUCUAACUCCUGUUUGGGGAGCAAGUGUUAAUAAUAACUUAUUCCUAAAGCUUGGUUUUUCUUUUUUGUGAUUUUAUUGUGUAUAUGAGUGGUGGGUAC`, “RBNS enrichment (R)” read 1.23.
Under “RBNS enrichment (R)”, `GCUGUGCCUGCUCCAGAGGCAUGGGCCACCUGGGUAACAGCACACAGCAGAAAAGCACAGAGAGAAAAACAACUGGUCCAGAAAUUCAGUGGAUCCAUGACUUACGUGUC` is recorded as 0.449.
`AUGAUUGAGUUAUUUAGUGAAAAUGUGGAACUAGCUGCCAGUGCCUCAGUCUUCUUGUAUAAUGCCUUUCCAUGGAUUGGCAUCCUGCCUUUUGGAAAACAUCAACAGCU` — result for “RBNS enrichment (R)”: 0.57.
For `UACUGGCUUAGUAAUCAAUACCAGUAAUUACCAUAGAACUUUAUCUGACUACCCAACCAUAUCAAAAGAGUACUUUUUUCUGGGUUAAUAAUACUAGCUUUGAUACAUAA`, “RBNS enrichment (R)” read 0.698.
`UAAGAGCGAAAACAAGGUCAUAUGUAAUAUUUUGUUUGUAAGUAUCCUUUGUAUCAUAGCAAAGGAAAUGUUUAAAAAAAUCAACUGUAAUAAAGUAAUUUUAGUACACA`: “RBNS enrichment (R)” 0.539.

Series 3
Target: Prothrombin, mature alpha-thrombin (F2, Homo sapiens, UniProt P00734)
Technique: aptamer microarray, sandwich
Molecule type: DNA with 2'F-ANA
Medium: in vitro
Concentration: 200 nM
Notes: whole 15-mer aptamer, many near background
Added: Cy3 exosite-II aptamer, 400 nM
Direction: higher = stronger binding
Sequence: GGTTGGTGTGGTTGG
Under “mean fluorescence intensity”, `2'F-ANA at 7 10 11 12 13 15` is recorded as 173 a.u.
`2'F-ANA at 1 2 3 6 7 10 12 14 15`: “mean fluorescence intensity” 57.1 a.u.
Under “mean fluorescence intensity”, `2'F-ANA at 2 4 5 8 9 10 13 15` is recorded as 48.6 a.u.
For `2'F-ANA at 1 3 4 6 8 11`, “mean fluorescence intensity” read 184 a.u.
Under “mean fluorescence intensity”, `2'F-ANA at 3 4 6 7 8 10 12 13 14` is recorded as 169 a.u.
`2'F-ANA at 2 4 5 6 8 9 11 12 14 15` — result for “mean fluorescence intensity”: 52.5 a.u.
`2'F-ANA at 4 5 6 7 8 9 10 14`: “mean fluorescence intensity” 46.3 a.u.
`2'F-ANA at 1 3 4 5 6 10 11 13 14 15` — result for “mean fluorescence intensity”: 50.7 a.u.
For `2'F-ANA at 1 2 8 11 12 13 14`, “mean fluorescence intensity” read 64.3 a.u.
For `2'F-ANA at 1 3 9 10 12 13 14 15`, “mean fluorescence intensity” read 65.1 a.u.
`2'F-ANA at 1 2 4 9 10 11 14 15`: “mean fluorescence intensity” 45.1 a.u.
For `2'F-ANA at 2 3 4 5 7 8 9 10 12 13 14 15`, “mean fluorescence intensity” read 55.5 a.u.
`2'F-ANA at 1 4 5 6 7` — result for “mean fluorescence intensity”: 108 a.u.
`2'F-ANA at 2 4 5 6 7 8 10 12 14 15`: “mean fluorescence intensity” 105 a.u.
For `2'F-ANA at 1 2 5 10 11 13 14 15`, “mean fluorescence intensity” read 44.7 a.u.
`2'F-ANA at 2 3 4 7 8 10`: “mean fluorescence intensity” 321 a.u.
For `2'F-ANA at 1 2 5 6 7 8 9 10`, “mean fluorescence intensity” read 92.8 a.u.
`2'F-ANA at 1 3 5 7 8 10 12 14` — result for “mean fluorescence intensity”: 55.2 a.u.
`2'F-ANA at 2 4 5 6 7 8 9 10 11 12 13 14 15` — result for “mean fluorescence intensity”: 51.1 a.u.

Series 4
Target: Histone acetyltransferase KAT6A, winged helix 1, GST fusion (KAT6A, Homo sapiens, UniProt Q92794, residues 1-85)
Technique: protein binding microarray
Molecule type: double-stranded DNA, one strand shown
Medium: in vitro
Concentration: not given
Notes: 8-mer, flanks averaged, mean of 2 arrays, mostly near background
Reference: not given
Direction: higher = stronger binding
Target sequence (chain): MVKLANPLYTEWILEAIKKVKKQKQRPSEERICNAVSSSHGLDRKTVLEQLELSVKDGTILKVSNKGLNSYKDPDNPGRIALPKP
`ACTCGTGA` has an E-score of -0.269.
`CAATTATC` has an E-score of 0.12.
For `CCTGTGAC`, the E-score was -0.23.
The E-score of `CAGGTAAC` is reported as -0.11.
The E-score of `CCGTAACA` is reported as 0.236.
For `GGGTGGGA`, the E-score was -0.0664.
The E-score of `TACACAGA` is reported as -0.251.
The E-score of `ATTAGGAG` is reported as -0.192.
With `GGCAACGA` the E-score was 0.0709.
For `TAAATAAA`, the E-score was -0.0668.
For `ATGTCGAA`, the E-score was -0.133.
`AGATCTAC` has an E-score of -0.0445.
`ATCTCTAC` gave an E-score of -0.171.
The E-score of `GTAGTAAA` is reported as -0.179.
`TACGTAAA` has an E-score of -0.00949.
`ACCTGCGT` gave an E-score of 0.0117.
The E-score of `CACGCACG` is reported as 0.28.
For `CAAACGTA`, the E-score was -0.0844.
The E-score of `AGTACGCG` is reported as 0.303.
For `AAGCCCAT`, the E-score was -0.183.
For `ATAGTGTA`, the E-score was -0.114.
For `GATAAGCA`, the E-score was -0.0206.

For quick reference, copied from above (series 4):
The E-score of `ATTAGGAG` is reported as -0.192.
`TACGTAAA` has an E-score of -0.00949.
For `ATGTCGAA`, the E-score was -0.133.
`CAATTATC` has an E-score of 0.12.
`ACTCGTGA` has an E-score of -0.269.
The E-score of `GTAGTAAA` is reported as -0.179.
